# Assay results from different studies.
# Compare with care: the assays were run in different laboratories. ± gives the spread as reported.
SMILES,target or system,assay,test system,setting,how to read,measurement,result
CNc1ccc(-c2nc3ccc(O)cc3s2)cc1 [carbon-11 labelled],,microPET/CT imaging,"B6SJL mouse, normal, brain","intravenous, 20 min",,SUV,0.21 ± 0.065
CCCC1CCC(c2ccc(OCC)c(F)c2F)CC1 (stereo not drawn),,item: compound,"human pregnant women, male fetuses, cord serum","dose not given, paired maternal-cord samples, mean",,concentration,0.7 ng/mL
CCOc1c([C@H](C)n2nc(C)c3c(N)ncnc32)cc(Cl)c(F)c1[C@@H]1CNC(=O)C1,,,"patients, monotherapy","oral, 20 mg once daily, cycle 1 day 15",,half-life geometric mean,8.66 h
CC(C(=O)NCC(=O)NCC(CNC(=O)CNC(=O)C(C)N1CCN(CC(=O)[O-])CCN(CC(=O)[O-])CCN(CC(=O)[O-])CC1)(CNC(=O)CNC(=O)C(C)N1CCN(CC(=O)[O-])CCN(CC(=O)[O-])CCN(CC(=O)[O-])CC1)CNC(=O)CNC(=O)C(C)N1CCN(CC(=O)[O-])CCN(CC(=O)[O-])CCN(CC(=O)[O-])CC1)N1CCN(CC(=O)[O-])CCN(CC(=O)[O-])CCN(CC(=O)[O-])CC1.[Gd+3].[Gd+3].[Gd+3].[Gd+3] (stereo not drawn),,,"cynomolgus monkey, skin","dose not given, day 5",,lanthanide tissue concentration,0.34 ± 0.12 nmol/g
CCc1cc(C(=O)NC)c2nccc(N3CCc4c(cc(Cn5ccnc5)cc4-c4cn(C)nc4C(F)(F)F)C3=O)c2c1,,,Sprague Dawley rats,"oral, 50 mg/kg once daily, 7 days",reference: vehicle,serum RDW change,-2.94%
COc1cc(N)c(Cl)cc1C(=O)NC1CCN(CCCOc2ccc(F)cc2)CC1OC (stereo not drawn),,,"male Hartley guinea pig, anaesthetized","intravenous infusion, 0.1 mg/kg, 10 min infusion, post-infusion",,QTc interval,327 ± 1.3 ms
O=C(O)CCCCCCCCCCCCCCC(=O)O,,,"human, plasma",endogenous baseline diurnal,,daily mean concentration,169 ± 23 nM
CNCc1ccc(-c2[nH]c3cc(F)cc4c3c2CCNC4=O)cc1,,,human patients,"oral, 600 mg twice daily, grade 3",,incidence of headache,0%
CCC(C)n1ncn(-c2ccc(N3CCN(c4ccc(OCC5COC(Cn6cncn6)(c6ccc(Cl)cc6Cl)O5)cc4)CC3)cc2)c1=O (stereo not drawn),,item: general administration site conditions,healthy human participants,"oral, 200 mg, compound alone cohort",,adverse event incidence,0%
CC(=O)Nc1c(C)cc(NS(=O)(=O)c2cc(Cl)cc(Cl)c2O)cc1C,,"colloidal aggregate formation, dynamic light scattering",50 mM potassium phosphate buffer,"200 µM, pH 7.0, 1% DMSO",higher = more aggregation,DLS scattered light intensity,531000 counts/s
CCCOc1ccc([C@H]2CNC(=O)N2c2ccc3[nH]cnc3c2)cc1,,,"human volunteers fed, plasma","oral tablet, 200 mg single dose, crossover, geometric mean",,AUC(0-tlast),2300 ng·h/mL
COc1ccc2c(c1)CN(C(=O)CCN1CCC(Cc3ccccc3)CC1)CC[S@@+]2[O-],,telemetry,conscious male beagle dogs,"intravenous, 8 mg/kg, 4 h",,PQ interval,88 ± 9 ms
CO[C@@H]1[C@H](O)[C@@H](CO)O[C@H]1n1c([N+](=O)[O-])nc2c(=O)[nH]c(N)nc21,,"depurination, RP-HPLC",citrate-phosphate buffer 0.5 mM,"65 min, pH 5, 37 °C",,nucleoside remaining fraction,0.949
COc1ncc(-c2nc3c(n2C(C)C)[C@H](c2ccc(Cl)cc2)N(c2cc(Cl)cn(C)c2=O)C3=O)c(OC)n1,,LC-MS/MS,"human, plasma","oral, 20 mg, cycle 1 day 8, low-dose arm",,Cmax,184 ng/mL
CCO[C@H]1CCN(Cc2c(OC)cc(C)c3[nH]ccc23)[C@H](c2ccc(C(=O)O)cc2)C1,,,"PNH patients, active haemolysis","oral, 50 mg, 4 weeks, treatment",,incidence of cough,0%
Cc1oc(C)c(S(=O)(=O)NCc2ccc(Br)c(F)c2F)c1C(=O)O,,"colloidal aggregate formation, dynamic light scattering",50 mM potassium phosphate buffer,"200 µM, pH 7.0, 1% DMSO",higher = more aggregation,DLS scattered light intensity,456000 counts/s
CNC(=O)c1ccc(-c2cnc3ncc(Cc4ccc5ncccc5c4)n3n2)cc1F,,"CTCAE v4.0, any causality",human hepatocellular carcinoma patients,"oral, 600 mg twice daily, expansion cohort at RP2D",,non-cardiac chest pain incidence (all grades),0%
OC[C@H]1O[C@@H](c2ccc(Cl)c(Cc3ccc(O[C@H]4CCOC4)cc3)c2)[C@H](O)[C@@H](O)[C@@H]1O,,population PK model,"human, plasma",oral,"reference: non-Asian patients, higher in Asian",difference in ka,23%
O=C(Nc1nc2cccc(-c3ccc(CN4CCS(=O)(=O)CC4)cc3)n2n1)C1CC1,,item: food allergy,human rheumatoid arthritis patients,"oral, 300 mg once daily, 4 weeks, regardless of relatedness",,treatment-emergent adverse events,0%
COc1c(N2C[C@@H]3CCCN[C@@H]3C2)c(F)cc2c(=O)c(C(=O)O)cn(C3CC3)c12,,,"male Hartley guinea pig, anaesthetized","intravenous infusion, 1 mg/kg, 10 min infusion, post-infusion",,QTc interval,305 ± 0.4 ms
Cc1ccc([C@@H]2O[C@H](CO)[C@@H](O)[C@H](O)[C@H]2O)cc1Cc1ccc(-c2ccc(F)cc2)s1,,,Japanese type 2 diabetes patients,"200 mg, day 5, 24 h urine collection",reference: baseline,urinary chloride excretion change,-14.8 mEq
C[C@H]1CN(C(=O)CC#N)[C@]12CCN(c1ncnc3[nH]ccc13)C2,,,healthy human,"oral, dose not given",,subjects with Headache,6.3%
Cc1cc(-c2nccc3c2ccn3CC(=O)Nc2ccc(-c3cnccn3)cn2)ccn1,,,human,"5 mg once daily, multiple ascending dose",,subjects with Photophobia adverse event,0%
Cc1nnc(SCC2=C(C(=O)O)N3C(=O)[C@@H](NC(=O)Cn4cnnn4)[C@H]3SC2)s1,,,human whole blood,"concentration not given, 48 h, 4 °C",,deviation from nominal concentration,-1.5%
COc1cc(Nc2ncc3c(n2)-c2ccc(Cl)cc2C(c2c(F)cccc2OC)=NC3)ccc1C(=O)O,,,cancer patients,"oral, dose not given, grade 1 any attribution, together with: pembrolizumab",,patients with abdominal pain,13%
O=S(=O)(NCc1ccccc1OC(F)(F)F)c1cc(Cl)cc(Cl)c1O,,"colloidal aggregate formation, dynamic light scattering",50 mM potassium phosphate buffer,"200 µM, pH 7.0, 1% DMSO",higher = more aggregation,DLS scattered light intensity,849000 counts/s
Cl.[2H]C([2H])([2H])CC(=O)c1cnc(NC(=O)C2CC2)cc1Nc1cccc(-c2ncn(C([2H])([2H])[2H])n2)c1OC,,,"human, fasted, multiple dose","oral, 20 mg twice daily, tablet, day 14, geometric mean",,Ctrough,109 ng/mL
COc1ccc2c(c1)CC(C)CC2NS(=O)(=O)c1cccc(Cl)c1O (stereo not drawn),,"colloidal aggregate formation, dynamic light scattering",50 mM potassium phosphate buffer,"200 µM, pH 7.0, 1% DMSO",higher = more aggregation,DLS scattered light intensity,400000 counts/s
CC(C)(C(=O)N1CCOc2c(C#N)cncc2C1)C(F)F,,item: cutaneous vasculitis,"human, both sexes","oral, 15 mg twice daily, 14 days, multiple ascending dose",,subjects with TEAE,0%
N#Cc1ccc2c(c1)[C@H]1CCCN(C(=O)c3ccc4[nH]cnc4c3)[C@H]1C2,,,human,"80 mg, day 7",,minimum ACTH level,3.1 pmol/L
CNC(=O)c1ccc(-c2cnc3ncc(Cc4ccc5ncccc5c4)n3n2)cc1F,,ultrafiltration,"human moderate hepatic function, plasma","oral, 200 mg, 3 h post-dose, mean",,fraction unbound,0.0322
Cc1ccc(C(=O)N(CCCN)C(c2nc3snc(C)c3c(=O)n2Cc2ccccc2)C(C)C)cc1 (stereo not drawn),,pneumonia grade ≥3 (CTCAE),human patients,"intravenous, 16 mg/day",,patients with adverse event,0%
O=C(/C=C/CCc1ccc(O)cc1)/C=C/c1ccc(O)cc1,,,nude mouse MCF7 xenograft,"20 mg/kg, day 8",,body weight,20.4 ± 0.93 g
O=C(Nc1cnccc1Cl)N1CCN(Cc2ccc3c(c2)OC(F)(F)O3)CC1,,item: Headache,human healthy young men,"75 mg, multiple dose",,adverse event incidence,50%
COc1ccnc(C(=O)O)c1O,,soil adsorption,soil,"pH 6.9, organic carbon 0.8 %",,Freundlich coefficient KF,208 mL/g
CCN1/C(=C/C(C)=O)Sc2ccc(F)cc21,,,cynomolgus monkey,"oral, 100 mg/kg, 4 h post-dose",reference: pre-dose,PR interval change,103 ± 3.4%
CC(C)(C)c1ccc(O)c(CN(Cc2cc(C(C)(C)C)ccc2O)C2CCC(NC(N)=O)CC2)c1 (stereo not drawn),,,human liver microsomes,"5 ng/mL, time not given, freeze-thaw, 3 cycles, -20 °C",,recovery,96.8 ± 5.1%
Cc1cc(C)c2c(=O)cc(C(=O)Nc3nc4ccc(F)cc4s3)oc2c1,,haemolysis,sheep erythrocytes,"1 h, pH 7.5",,HC50,> 128 µg/mL
COc1cc2nccc(Oc3ccc(NC(=O)NC4CC4)c(Cl)c3)c2cc1C(N)=O,,UPLC-MS/MS,"Sprague-Dawley rat, male, plasma","oral, 10 mg/kg, without azole co-treatment",,terminal half-life,4.34 ± 1.76 h
CNC(=O)c1cc(Oc2ccc(NC(=O)Nc3ccc(Cl)c(C(F)(F)F)c3)cc2)cc[n+]1[O-],,,"mouse, Oatp1b2 knockout, plasma","oral, 10 mg/kg, without rifampin, geometric mean",,AUC(0-7.5 h),190 ng·h/mL
Cn1cc(-c2ccc(-c3cncc(Cl)c3N3CCC4(CCNC4=O)CC3)cc2)cn1,COLO 205,"gene expression, microarray, item: ISG20 mRNA",,"concentration not given, 2 h",reference: untreated cells,log2 fold change,3.33
O=C(O)CCC(=O)O.[2H]C([2H])([2H])Oc1cc(C)c2[nH]ccc2c1CN1CC[C@@H](C2CC2)C[C@H]1c1ccc(C(=O)O)cc1,,multiple ascending dose,healthy Chinese subjects,200 mg once daily,,subjects with muscle pain TEAE,12.5%
CC(=O)N(C)[C@H]1CCN(C(=O)c2cnc3c(c2)C[C@](C)(c2ccc(F)cc2)N3)C1,,,"healthy male subjects, multiple rising dose","oral, 30 mg once daily",,severe adverse events,12.5%
CCOC(=O)/C(C#N)=C(\O)c1ccc(NC(=O)c2cccs2)cc1,,haemolysis,sheep erythrocytes,"1 h, pH 7.5",,HC50,> 128 µg/mL
Cc1nc(-c2cnc(NC(C)C)n(C)c2=O)ccc1Oc1ccnc(-c2cnn(C)c2)c1,,,"Beagle dog, male, plasma","oral, 3 mg/kg, crossover study, mean",,half-life,10.6 h
Cc1nc2cccc(OCC(C)(C)C(=O)NC(C)C)c2c(N)c1C(=O)O,,,"male Swiss albino CD-1 mouse, bone marrow","oral, 1000 mg/kg, 36 h",,micronucleated polychromatic erythrocytes,0.06%
Cc1nc2cc(Cl)c(NS(=O)(=O)c3cccc(Cl)c3O)cc2s1,,"colloidal aggregate formation, dynamic light scattering",50 mM potassium phosphate buffer,"200 µM, pH 7.0, 1% DMSO",higher = more aggregation,DLS scattered light intensity,769000 counts/s
OC[C@H]1O[C@@H](c2ccc(Cl)c(Cc3ccc(O[C@H]4CCOC4)cc3)c2)[C@H](O)[C@@H](O)[C@@H]1O,,,"Japanese type 1 diabetes patients, blood","10 mg, day 28",reference: baseline,change in eGFR,0.11 mL/min/1.73 m²
CCn1cc(C(=O)N2CCOCC2)c(=O)c2cc(NC3Cc4ccccc4C3)cnc21,,,"human, fed","oral suspension, 1200 mg/day twice daily, day 1, arithmetic mean",,AUC(0-12),8680 ng·h/mL
FC(F)(F)c1ccc(CNc2ccc(Cc3c[nH]c4ncc(Cl)cc34)cn2)cn1,,item: Rash,patients with advanced solid tumours,"oral, dose not given, grade 3 and 4, possibly related to drug",,adverse event incidence,6%
C#CC(CC1CCC1)NS(=O)(=O)c1cccc(Cl)c1O (stereo not drawn),,"colloidal aggregate formation, dynamic light scattering",50 mM potassium phosphate buffer,"200 µM, pH 7.0, 1% DMSO",higher = more aggregation,DLS scattered light intensity,413000 counts/s
CC[C@@H]1CN(C(=O)NCC(F)(F)F)C[C@@H]1c1cnc2cnc3[nH]ccc3n12,,population PK model,"healthy, RA and CD subjects, plasma","oral, immediate-release formulation",reference: females over males,CL/F ratio,0.85
O=C(O)CCCOc1ccc([18F])cc1-c1cc(-c2ccccc2C(F)(F)F)n(-c2ccccc2)n1,,gamma counting,"male ddY mice, liver","intravenous, 2.1 MBq, 30 min",,radioactivity uptake,0.92 ± 0.08 SUV
Cc1cc(-c2nnc(N)nc2-c2ccc(F)cc2)cc(Cl)n1,,item: hypothyroidism,IO-naive other solid tumour patients,"oral, 100 mg once daily, treatment-related, grade 1",,patients with immune-mediated AE,0%
CC(=O)c1cc(C(=O)N[C@@H](C)Cn2ccc(-c3ccc(C#N)c(Cl)c3)n2)[nH]n1,,,"healthy male human, plasma","intravenous infusion, 100 µg 14C-labelled, 15 min infusion, microtracer, geometric mean",,AUC(0-tlast),19800 h·pg eq/mL
Cc1c(-c2ccc(N3CCc4cccc(C(=O)Nc5nc6ccccc6s5)c4C3)nc2C(=O)O)cnn1CC12CC3(C)CC(C)(C1)CC(OCCNCC[C@H](O)CO)(C3)C2,,,anesthetized male beagle dogs,"intravenous infusion, 0.3 mg/kg/min, 15 min",reference: vehicle,PR interval change,-6 ms
CNC(=O)c1ccc(-c2cnc3ncc(Cc4ccc5ncccc5c4)n3n2)cc1F,,,healthy human subjects,"oral, 200 mg, grade 3, all causality, together with: itraconazole 200 mg/day",,vessel puncture site haematoma incidence,0%
